# Assay results pooled from the literature.
# Compare with care: the assays were run in different laboratories.
SMILES,tested on,assay,test system,setting,how to read,measurement,result
Cn1ncc2cc(-c3cncc(Cl)c3N3CCC4(CCNC4=O)CC3)ccc21,LS174T,"gene expression, microarray, item: TRIM31 mRNA",,"concentration not given, 4 h",reference: untreated cells,log2 fold change,-1.54
C=CC(=O)Nc1cccc(Cn2ncc3cnc(Nc4cnn(CCOC)c4)nc32)c1,CAMK1 human,"binding, KINOMEscan",,100 nM,lower = stronger binding,percent of control,100%
Nc1ncc(-c2cc(-c3cnn(CC(F)(F)F)c3)ncc2F)nc1C(=O)NC1CNCC(F)C1 (stereo not drawn),ITK,KINOMEscan,,1 µM,reference: DMSO control,remaining binding,100%
CC(C)c1ccc(N(C)c2ccc3c(c2)OCC[C@H]3CNc2cnccc2C(=O)O)cc1,KYSE-30,"cell growth or viability, ATP luminescence",,7 days,,IC50,2.43 nM
C=C(NC(=O)c1csc(-c2nc3c(cc2O)-c2nc(cs2)C(=O)NC(C(C)O)C(=O)NC(=C(C)OC)c2nc(cs2)C(=O)NC2c4nc(cs4)C(=O)NC(COC(=O)c4c5c6c(cccc6n4O)COC(=O)C(OC4CC(C)(O)C(N(C)C)C(C)O4)C2OC5)c2nc-3cs2)n1)C(N)=O (stereo not drawn),Streptococcus pneumoniae,,"-25, immunocompromised mice, lung","16 mg/kg/day thrice daily, 24 h post-dose",,lung bacterial load,3.89 log10 CFU/lung
CO[C@@H]1[C@@H](OC(N)=O)[C@@H](O)[C@H](Oc2ccc3c(O)c(NC(=O)c4ccc(O)c(CC=C(C)C)c4)c(=O)oc3c2C)OC1(C)C,HCT-116 BRCA2-/-,,,"300 µM, replicate 2",,colony count,0.1
CN1CCCNC(=O)c2cccc(c2)C(=O)NCCCN(C)CCCNc2cccc3c2C(=O)c2cccc(c2C3=O)NCCC1,SAS,"RNA-Seq, item: GOLGB1 mRNA",,"1 µM, 6 h",reference: untreated cells,log2 fold change,-1.48
CNS(=O)(=O)Nc1nccc(Cc2c(C)c3ccc(Oc4ncccc4F)cc3oc2=O)c1F,CAL-12T,cell viability,,7 days,,IC50,> 1000 nM
COC1CN([C@H]2CC[C@H]([C@@]3(C)Oc4c(Cl)cc(C(=O)NCc5c(SC)cc(C)[nH]c5=O)c(C)c4O3)CC2)C1,,"RNA-seq, item: PLD2 mouse homolog","mouse, HT-1376 xenograft, whole blood",dose not given,reference: vehicle,log2 fold change,1.08
Cc1ncsc1-c1ccc(C(C)NC(=O)C2CC(O)CN2C(=O)C(NC(=O)CCCCCCCCCCN2CCCC(Nc3ncc(Cl)c(Nc4ccccc4S(=O)(=O)C(C)C)n3)C2)C(C)(C)C)cc1 (stereo not drawn),22Rv1,"RNA-seq, item: ZMYM1 mRNA",,concentration not given,reference: DMSO,log2 fold change,-1.66
CCN(CC)CC(=O)Nc1cccc(-n2cc(-c3ccc4ccc(-c5cn(-c6cccc(NC(=O)CN(CC)CC)c6)nn5)cc4c3)nn2)c1,RCC4,"PCR angiogenesis array, item: ANGPTL4",,"5 x IC50, 4 h, normoxia",reference: untreated,fold regulation,-2.32
C=CC(=O)N1[C@H](c2ccc3c(c2)OCO3)c2[nH]c3ccccc3c2C[C@@H]1C(=O)N1CCN(C)CC1,human cyclin E1 N112C-3xFLAG:CDK2,"co-IP with TMT proteomics, item: DNAJA1",,"concentration not given, P31689",reference: wild type DMSO,relative co-enrichment,114%

# A few entries again:
SMILES,tested on,assay,test system,setting,how to read,measurement,result
CN1CCCNC(=O)c2cccc(c2)C(=O)NCCCN(C)CCCNc2cccc3c2C(=O)c2cccc(c2C3=O)NCCC1,SAS,"RNA-Seq, item: GOLGB1 mRNA",,"1 µM, 6 h",reference: untreated cells,log2 fold change,-1.48
CNS(=O)(=O)Nc1nccc(Cc2c(C)c3ccc(Oc4ncccc4F)cc3oc2=O)c1F,CAL-12T,cell viability,,7 days,,IC50,> 1000 nM
